Measurements gathered from unrelated publications.
Every numbered part comes from another study and shows a few of its results, in no order. Positions count from the first letter of the parent shown.

Block 1 — technique: DHFR PCA, deep sequencing; matrix: yeast; added: (+)-ABA 0 µM; reference: wild-type fitted maximum; reading: higher = stronger binding
Target: ABI1, truncated, D143A, DHFR fusion (Arabidopsis thaliana)
Setting: methotrexate growth selection, single substitutions
Starting sequence: PYL1, truncated, DHFR fusion (Arabidopsis thaliana); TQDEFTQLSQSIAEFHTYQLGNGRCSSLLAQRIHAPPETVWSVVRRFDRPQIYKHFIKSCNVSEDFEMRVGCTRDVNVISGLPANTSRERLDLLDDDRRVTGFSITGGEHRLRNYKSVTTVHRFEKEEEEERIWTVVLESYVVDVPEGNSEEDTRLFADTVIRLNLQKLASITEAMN; partner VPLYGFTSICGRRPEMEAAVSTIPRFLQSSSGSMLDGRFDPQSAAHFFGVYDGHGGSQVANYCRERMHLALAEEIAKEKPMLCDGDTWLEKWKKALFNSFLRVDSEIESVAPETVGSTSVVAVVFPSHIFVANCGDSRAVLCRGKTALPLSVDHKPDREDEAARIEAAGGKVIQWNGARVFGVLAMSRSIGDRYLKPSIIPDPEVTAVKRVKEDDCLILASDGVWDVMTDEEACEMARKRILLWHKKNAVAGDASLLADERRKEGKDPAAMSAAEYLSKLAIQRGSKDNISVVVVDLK
`A170G` — result for “relative binding score”: -2.88%.
`Q10M` — result for “relative binding score”: 5.13%.
For `E131R`, “relative binding score” read 45.3%.
`S9M` — result for “relative binding score”: 21.2%.
`S80K` — result for “relative binding score”: 1.16%.
`S9P`: “relative binding score” 0.264%.
`L156E` — result for “relative binding score”: 1.15%.
`R46V` — result for “relative binding score”: -4.66%.
`L169W`: “relative binding score” 1.37%.
`G148R`: “relative binding score” -0.702%.
`D153G` — result for “relative binding score”: 1.46%.
`T1H`: “relative binding score” 22.4%.

Block 2 — target: DBP, bZIP domain (human); technique: DHFR protein complementation; matrix: yeast; reference: wild-type JUN-FOS pair; reading: higher = stronger binding
Setting: single substitutions, most at no-binding floor
Starting sequence: JUN, bZIP domain (human); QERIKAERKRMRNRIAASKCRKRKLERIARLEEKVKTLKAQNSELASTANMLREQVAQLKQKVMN; partner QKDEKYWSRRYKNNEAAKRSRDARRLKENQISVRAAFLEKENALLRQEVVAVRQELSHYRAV
For `N42T`, the binding fitness was -1.45 natural log.
The binding fitness of `E44F` is reported as -1.51 natural log.
`L38G` gave a binding fitness of -1.49 natural log.
`I28G` has a binding fitness of -1.39 natural log.
`A40C` gave a binding fitness of -1.55 natural log.
The binding fitness of `L52D` is reported as -1.49 natural log.
For `K39E`, the binding fitness was -1.44 natural log.
`E54I` gave a binding fitness of -1.31 natural log.
`E33D` has a binding fitness of -1.49 natural log.
`L52M` has a binding fitness of -1.41 natural log.
`L38A` gave a binding fitness of -1.52 natural log.
`L38N` gave a binding fitness of -1.53 natural log.
`E44S` gave a binding fitness of -1.52 natural log.
`L38Q` gave a binding fitness of -1.46 natural log.
`A46D` has a binding fitness of -1.49 natural log.
`Q55V` gave a binding fitness of -1.11 natural log.

Block 3 — target: CCNB1, cyclin fold, Cln2 fusion (human); technique: yeast growth competition, sequencing; matrix: yeast; setting: weak parent motif; reference: not given; reading: higher = stronger binding
Starting sequence: CDKN1B docking peptide (human); PSACRNLFGPVDH
Under “normalised enrichment score”, `PSACRNLFGPVYH [D12Y]` is recorded as 0.722.
For `PSACYNLFGPVDH [R5Y]`, “normalised enrichment score” read 0.379.
For `PSACRDLFGPVDH [N6D]`, “normalised enrichment score” read 0.0553.
For `PSACRNLYGPVDH [F8Y]`, “normalised enrichment score” read -0.412.
Under “normalised enrichment score”, `PSACRNLGGPVDH [F8G]` is recorded as -0.48.
Under “normalised enrichment score”, `PSACRNSFGPVDH [L7S]` is recorded as 0.299.
`PSACRNLFGPPDH [V11P]` — result for “normalised enrichment score”: 0.278.
`PSACRNLFGFVDH [P10F]`: “normalised enrichment score” 0.478.
`PSACRNLFGHVDH [P10H]`: “normalised enrichment score” -0.088.
For `PSACRNLFGPNDH [V11N]`, “normalised enrichment score” read 0.265.
For `PSACRNLFGPVGH [D12G]`, “normalised enrichment score” read 0.334.
`PSACRNLFGRVDH [P10R]`: “normalised enrichment score” 0.936.
`PSASRNLFGPVDH [C4S]`: “normalised enrichment score” -0.000474.
`PSACRNLFGWVDH [P10W]` — result for “normalised enrichment score”: 0.422.
For `PSACRNLFGPADH [V11A]`, “normalised enrichment score” read 0.157.
Under “normalised enrichment score”, `PSACQNLFGPVDH [R5Q]` is recorded as -0.0196.
Under “normalised enrichment score”, `PSACRNLFGPVDD [H13D]` is recorded as 0.487.
`PSACRNPFGPVDH [L7P]`: “normalised enrichment score” -0.036.
`PSACRNLFGPVDA [H13A]` — result for “normalised enrichment score”: 0.55.
`PSACRNLMGPVDH [F8M]`: “normalised enrichment score” 0.0351.
`PSACRNRFGPVDH [L7R]`: “normalised enrichment score” 0.294.
For `PSACRNLFYPVDH [G9Y]`, “normalised enrichment score” read 0.526.
For `PGACRNLFGPVDH [S2G]`, “normalised enrichment score” read -0.317.
`PSACRNLFGPVDG [H13G]` — result for “normalised enrichment score”: 0.356.
Under “normalised enrichment score”, `PSACRNDFGPVDH [L7D]` is recorded as 0.337.

Block 4 — technique: protein-binding microarray; molecule type: double-stranded DNA, one strand shown; matrix: in vitro; tested at: 0.8 µM; setting: whole 60-bp probe, no competitor; reading: higher = stronger binding; constant ends, left off below: … GTCTTGATTCGCTTGACGCTGCTG
Target: Centromere-binding protein 1, full length, N-terminal tag (CBF1, Saccharomyces cerevisiae, UniProt P17106, residues 1-351)
Chain of UniProt P17106 (whole entry, looked up): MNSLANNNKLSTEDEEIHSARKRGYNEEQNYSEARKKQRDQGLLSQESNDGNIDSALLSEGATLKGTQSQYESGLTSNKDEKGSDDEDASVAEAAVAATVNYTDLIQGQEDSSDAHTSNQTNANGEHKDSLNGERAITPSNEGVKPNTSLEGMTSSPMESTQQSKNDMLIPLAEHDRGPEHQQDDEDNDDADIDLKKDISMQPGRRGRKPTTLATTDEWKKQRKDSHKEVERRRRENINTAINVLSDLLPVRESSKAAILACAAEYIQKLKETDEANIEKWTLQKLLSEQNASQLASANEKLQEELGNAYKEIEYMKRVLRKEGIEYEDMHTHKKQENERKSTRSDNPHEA
With `GAATTGCGGTTTTGTCACCTTAGTCAGCTAGTATAG` the fluorescence intensity was 560 a.u.
For `GAATCAGACAGTTCTGTCGTGATGGGAGAACTGTAG`, the fluorescence intensity was 506 a.u.
`GAAGACACACAATAGCATGTGCGACGAGACACCTAG` gave a fluorescence intensity of 544 a.u.
With `GAATATATCGGCGAGAGCGTGCGTTCTATCAACTAG` the fluorescence intensity was 505 a.u.
With `CTAACTTTATACCACCACCACATGCCATACTCATTC` the fluorescence intensity was 617 a.u.
For `TGTACGAAGCTATACATCGTGCATATAGTAGTTAGG`, the fluorescence intensity was 533 a.u.
For `CTATAATATCTCGCCATCACCAGGTTGACGGTATTC`, the fluorescence intensity was 522 a.u.
`GAAAATATTTGTGTGCACGAGATATGGGAGGACTAG` has a fluorescence intensity of 1300 a.u.
With `CTATCACATAACCACTAGTCACCTGTGCATTCTTTC` the fluorescence intensity was 1190 a.u.
With `GAATTGCCTCGATTGCATGTGACAAAAGTGCAATAG` the fluorescence intensity was 2030 a.u.
`TGTACGAAGCTATATGATGATATTATAGTAGTTAGG` gave a fluorescence intensity of 570 a.u.
`CTACAGCTCAACAGCGTGGTGACGAGTTGCGTCTTC` gave a fluorescence intensity of 504 a.u.
`GAACGTCTGTGCATCTACGTGAACACACCAGGGTAG` gave a fluorescence intensity of 543 a.u.
`CTACTACAACTTTGGCGCGTGAGCCAAGTGTCTTTC` has a fluorescence intensity of 559 a.u.
`CTATTATTATGATCGCTCGTGACGGATCGTCTTTTC` gave a fluorescence intensity of 1050 a.u.
For `CTAGCCACTAAAACTGATGGCGCGAGAAACAAATTC`, the fluorescence intensity was 533 a.u.
`GAATATATATATAAGCACGGGCGCATGGGAGATTAG` has a fluorescence intensity of 790 a.u.
With `GAAAGTTATGACATTCACACCACTTTAGAATTTTAG` the fluorescence intensity was 536 a.u.
`GAATTCTCCCGCTAACACGTTTATACCCTTTCTTAG` gave a fluorescence intensity of 576 a.u.
`CTAAACTGCTGTAGCCATGTGGGATGATCATGCTTC` has a fluorescence intensity of 607 a.u.
With `CTAATCAAAACAAATCGTGTCACTCATTAAACATTC` the fluorescence intensity was 515 a.u.
`GAAGTTTTATGTCCCCACGTTACACCGCATGTGTAG` gave a fluorescence intensity of 614 a.u.

Block 5 — technique: RNA Bind-n-Seq; molecule type: RNA; matrix: in vitro; tested at: 200 nM; setting: whole 134-nt RNA, ends assumed; added: 150 mM LiCl; reference: input library; reading: higher = stronger binding; all molecules: 7-deaza-guanosine replaces G
Target: Fragile X messenger ribonucleoprotein 1, C-terminal low-complexity region (Fmr1, Mus musculus, UniProt P35922)
Constant ends, left off below: GGGAGUUCUACAGUCCGACGAUC … UGGAAUUCUCGGGUGUCAAGG
The log2 enrichment of `AAGUCCUGUGCUACACAUCGUAUGUACCGAAUCAAACCCAAAUUUUUAAACCCAAAAAAGUAUUAUGUUACGCCGUUCGGAUCUGCACUU` is reported as 0.182.
`UGGUUUUGGUGCCUGGCAUCGAAGAUGGUGUGUUCUUUCUGGAAACUGUAUAUCUUAUUGGACUUAUCCAGAUGAUGAGAAACGCAAGGU` has a log2 enrichment of -2.04.
`UAACUUUAGAGGAGGAUCUGAUGGAUAUGGCGGUGGACGUGGAUUUGGGGAUGGCUAUAAUGGGUAUGGAGGAGGACCUGGAGGUGGCAA` has a log2 enrichment of 0.368.
The log2 enrichment of `CUCAAGUCCUGUGCUACACAUCGUAUGUACCGAAUCGGGUUGGGUUGGGGUUGGAAAGUAUUAUGUUACGCCGUUCGGAUCUGCACUUCC` is reported as -0.366.
`GUCCUGUGCUACACAUCGUAUGUACCGAAUCGGGGAAAAAGGGGAAAAAGGAAAAAGGAAAGUAUUAUGUUACGCCGUUCGGAUCUGCAC` gave a log2 enrichment of 0.286.
`AUGUUCUUGAAUACUUAGCAAACAUACCAGCAUCCCAAAGUCACCAAGAUAAACCCUCCUACUCCAACAUCACAUGAUCUUCUAAUUCUA` has a log2 enrichment of 1.22.
`UAACUUUAGAGGAGGAUCUGAUGGAUAUGGCAGAGGACGUGGAUUUGGGGAUGGCUAUAAUGGGUAUGGAGGAGGACCUGGAGGUGGCAA` gave a log2 enrichment of 0.424.

Block 6 — technique: universal PBM; molecule type: double-stranded DNA, one strand shown; matrix: in vitro; tested at: not given; reading: higher = stronger binding
Target: Sal-like protein 4, full length isoform B (SALL4, Homo sapiens, UniProt Q9UJQ4-2, residues 1-616)
Setting: 8-mer, flanks averaged, mean of replicates
Residues (chain): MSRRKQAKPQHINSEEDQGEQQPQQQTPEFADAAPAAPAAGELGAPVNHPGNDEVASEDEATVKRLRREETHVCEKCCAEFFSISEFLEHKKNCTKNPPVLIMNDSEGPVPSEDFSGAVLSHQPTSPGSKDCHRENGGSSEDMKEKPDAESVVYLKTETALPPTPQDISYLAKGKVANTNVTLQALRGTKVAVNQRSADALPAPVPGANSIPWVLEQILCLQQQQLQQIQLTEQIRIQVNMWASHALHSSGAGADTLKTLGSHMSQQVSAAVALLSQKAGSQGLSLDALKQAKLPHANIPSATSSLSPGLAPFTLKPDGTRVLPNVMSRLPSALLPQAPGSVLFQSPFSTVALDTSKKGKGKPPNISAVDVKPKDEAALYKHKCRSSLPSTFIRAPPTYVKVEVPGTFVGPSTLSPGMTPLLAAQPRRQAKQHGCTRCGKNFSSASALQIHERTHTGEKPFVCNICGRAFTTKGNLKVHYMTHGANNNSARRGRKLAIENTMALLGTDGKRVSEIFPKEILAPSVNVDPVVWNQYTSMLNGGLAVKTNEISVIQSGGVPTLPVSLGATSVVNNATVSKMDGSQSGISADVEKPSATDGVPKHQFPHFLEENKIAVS
`AAGGGGAG` has an E-score of -0.211.
`GCTACAAA` has an E-score of 0.12.
`GGCATCAA` gave an E-score of -0.0657.
The E-score of `CTCCGTAA` is reported as -0.107.
For `ATCACACC`, the E-score was -0.0639.
`CCCCGGGC` has an E-score of -0.425.
With `AGAGTGTC` the E-score was 0.0998.
The E-score of `TCTCAAAA` is reported as 0.262.
The E-score of `ACAGTTCG` is reported as -0.0164.
With `AACCCTCC` the E-score was -0.163.
`AATAGCCC` gave an E-score of -0.0284.
`GGCGAACA` gave an E-score of -0.0863.
For `CATGATGC`, the E-score was 0.0542.
For `CGTGTACA`, the E-score was 0.107.
`AGCAGGCT` has an E-score of -0.201.
`GGATCTTA` has an E-score of 0.0104.
For `CTATGGCC`, the E-score was -0.164.
The E-score of `CGCCGCAA` is reported as -0.163.
With `CTCGAGAA` the E-score was -0.124.
The E-score of `AGGGTATC` is reported as -0.0853.
`TCTCCGAA` has an E-score of -0.148.

Some of these lines once more (block 4):
`CTACTACAACTTTGGCGCGTGAGCCAAGTGTCTTTC` has a fluorescence intensity of 559 a.u.
With `GAATATATCGGCGAGAGCGTGCGTTCTATCAACTAG` the fluorescence intensity was 505 a.u.
With `CTAATCAAAACAAATCGTGTCACTCATTAAACATTC` the fluorescence intensity was 515 a.u.
With `GAAAGTTATGACATTCACACCACTTTAGAATTTTAG` the fluorescence intensity was 536 a.u.
`GAATATATATATAAGCACGGGCGCATGGGAGATTAG` has a fluorescence intensity of 790 a.u.
`CTAAACTGCTGTAGCCATGTGGGATGATCATGCTTC` has a fluorescence intensity of 607 a.u.
For `TGTACGAAGCTATACATCGTGCATATAGTAGTTAGG`, the fluorescence intensity was 533 a.u.
For `CTAGCCACTAAAACTGATGGCGCGAGAAACAAATTC`, the fluorescence intensity was 533 a.u.
